Measured values gathered from unrelated publications.
Each line is one published result; not all experiments were run side by side. Values joined by “and” are separate records of one study, mostly repeats; a detail may differ. ± gives the spread as reported.

| Compound | test | test system | conditions | how to read | endpoint | result |
| --- | --- | --- | --- | --- | --- | --- |
| Nc1ncnc2c1ncn2[C@@H]1O[C@@H]2COP(=O)([S-])O[C@@H]3[C@H](O)[C@@H](COP([O-])(=S)O[C@H]2[C@H]1O)O[C@H]3n1cnc2c(N)ncnc21.[Na+].[Na+] (stereo partly shown) |  | non-tumor-bearing mice, serum | intravenous, 1 mg/kg, toxicity study |  | glucose | 10 ± 1.32 mmol/L |
| O=C(c1ccc(F)c(F)c1Nc1ccc(I)cc1F)N1CC(O)([C@@H]2CCCCN2)C1 |  | human patients | oral, 1 mg/kg, age ≥18 years |  | serious adverse events | 100% |
| CN1CC[C@@H](c2c(O)cc(O)c3c(=O)cc(-c4ccc(C(F)(F)F)cc4Cl)oc23)[C@@H]1CO | item: urinary incontinence | B-cell malignancies | oral, 150 mg, grade 3 to 4, intermittent dosing |  | patients with adverse event | 0% |
| O=S(=O)(Nc1ccccc1)c1ccc(NC(=S)Nc2ccccc2)cc1 | item: NE% | male mouse, blood | oral, 80 mg/kg daily, 14 days |  | blood cell fraction | 19.6% |
| C=CC(=O)N1CC[C@H](n2nc(C#Cc3cc(OC)cc(OC)c3)c3c(N)ncnc32)C1 |  | patients with advanced solid tumours | oral, dose not given, Diarrhea, any grade, QD, with: sevelamer hydrochloride |  | adverse drug reaction incidence | 13.6% |
| CC[C@H](C)[C@H](NC(=O)[C@H](Cc1ccccc1)NC(=O)[C@H](CCC(=O)O)NC(=O)[C@H](CCCNC(=N)N)NC(=O)[C@H](C)NC(=O)[C@H](C)NC(=O)[C@H](CCC(N)=O)NC(=O)[C@H](CCC(=O)O)NC(=O)[C@H](CCC(=O)O)NC(=O)[C@H](CC(C)C)NC(=O)[C@H](Cc1ccc(O)cc1)NC(=O)[C@H](CO)NC(=O)[C@H](CO)NC(=O)[C@@H](NC(=O)[C@H](CC(=O)O)NC(=O)[C@H](CO)NC(=O)[C@@H](NC(=O)[C@H](Cc1ccccc1)NC(=O)[C@@H](NC(=O)CNC(=O)[C@H](CCC(=O)O)NC(=O)[C@H](C)NC(=O)CCc1cnc[nH]1)[C@@H](C)O)[C@@H](C)O)C(C)C)C(=O)N[C@@H](C)C(=O)N[C@@H](Cc1c[nH]c2ccccc12)C(=O)N[C@@H](CC(C)C)C(=O)N[C@H](C(=O)N[C@@H](CCCNC(=N)N)C(=O)NCC(=O)N[C@@H](CCCNC(=N)N)C(=O)N[C@@H](CCCCNC(=O)COCCOCCNC(=O)COCCOCCNC(=O)CC[C@H](NC(=O)CCCCCCCCCCCCCCCCC(=O)O)C(=O)O)C(=O)NCC(=O)NCC(=O)N[C@@H](CO)C(=O)N[C@@H](CCSC)C(=O)N[C@H](C(=O)N[C@@H](CCCCNc1c(NCCCCCN(O)C(=O)CCC(=O)NCCCCCN(O)C(=O)CCC(=O)NCCCCCN(O)C(C)=O)c(=O)c1=O)C(=O)O)C(C)C)C(C)C [zirconium-89 labelled] | ex vivo gamma counting | male Sprague-Dawley rats, pancreas | intravenous, 1 nmol, 72 h, mean of 3 animals |  | tissue uptake | 0.119 %ID/g |
| Cn1c(-c2ccc(C(N)=O)cc2F)nnc1C(C)(C)Oc1c(F)cc(Cl)cc1F |  | human | oral, 60 mg, single ascending dose |  | musculoskeletal disorder TEAE | 0% |
| COc1cc2c(Oc3ccc4[nH]c(C)cc4c3F)ccnc2cc1OCC1(N)CC1 |  | paediatric recurrent refractory sarcoma | 8 mg/kg |  | grade 3 Headache | 0% |
| COc1ccc(CCC2CCCC(CCc3ccc(OC)cc3)N2C[C@@H](O)CO)cc1.Cl (stereo in doubt) |  | rabbit Purkinje fibres | 0.03 µM, cycle length 0.5 s | baseline: baseline | resting membrane potential change | -0.9 ± 0.7 mV |
| NCCCC[C@@H]1NC(=O)[C@@H](Cc2c[nH]c3ccccc23)NC(=O)[C@H](c2ccccc2)NC(=O)[C@@H]2C[C@@H](OC(=O)NCCN)CN2C(=O)[C@H](Cc2ccccc2)NC(=O)[C@H](Cc2ccc(OCc3ccccc3)cc2)NC1=O |  | healthy human volunteers | 600 µg twice daily |  | subjects with adverse event Dizziness | 15% |
| C/C(=N\C#N)N(C)Cc1ccc(Cl)nc1 |  | soil | 0 days, nominal 1.1 |  | concentration | 0.65 mg/kg dry soil |
| C[C@@H](NC(=O)N1C(=O)[C@H](Cc2ccnc(N)c2)[C@H]1C(=O)O)C1CCCCC1 |  | healthy adult Chinese volunteers | continuous intravenous infusion, 1.5 mg/kg/h, 5-day infusion, CTCAE 5.0 grading |  | drug-related abnormal liver function | 0% |
| COc1ccc(-c2c(-c3ccc(C#N)c(F)c3)nc(N3CCC(N)CC3)n(C)c2=O)cc1F | item: Metastasis | human patients | oral, 60 mg, dose expansion |  | serious adverse event incidence | 0% |
| C[C@]1(CO)Cc2ncn(-c3ccc(C#N)c(Cl)c3)c2C(=O)O1 |  | healthy Japanese adults, plasma | 3 mg single dose |  | Cmax | 202 nM |
| COc1ccc2c(c[n+](C)c3c4cc5c(cc4ccc23)OCO5)c1OC | LC-MS/MS | rat, plasma | dose not given |  | MRT(0-t) | 2.42 h |
| CC(C)(C)c1cc(-n2nc3ccccc3n2)c(O)c(C(C)(C)C)c1 | exposure assessment | human, age 11-16 years | sunscreen |  | mean daily dermal uptake | 1.34 ng/kg body weight/day |

| Compound | test | test system | conditions | how to read | endpoint | result |
| --- | --- | --- | --- | --- | --- | --- |
| COc1ncccc1-c1cnn2ccc(N3CCN(C(=O)OC(C)C)CC3)nc12 |  | rat, CCI mechanical allodynia model, plasma | oral, 1 mg/kg, 240 min |  | drug concentration | 170 nM |
| CCCCCCCCCC(=O)N[C@@H](Cc1c[nH]c2ccccc12)C(=O)N[C@H](CC(N)=O)C(=O)N[C@@H](CC(=O)O)C(=O)N[C@@H]1C(=O)NCC(=O)N[C@@H](CCCN)C(=O)N[C@@H](CC(=O)O)C(=O)N[C@H](C)C(=O)N[C@@H](CC(=O)O)C(=O)NCC(=O)N[C@H](CO)C(=O)N[C@@H]([C@H](C)CC(=O)O)C(=O)N[C@@H](CC(=O)c2ccccc2N)C(=O)O[C@@H]1C | population PK model | human | intravenous, two-compartment model |  | intercompartmental clearance | 0.0428 L/min |
| CCc1ccc(CC/C=C/c2ccc3c(c2)C(=O)CC3)cc1 |  | Sprague-Dawley rat, female | oral, 30 mg/kg/day, 14 days |  | AST serum activity | 124 U/L |
| CC(C)[C@@H]1NC(=O)CNC(=O)[C@H](CC(N)=O)NC(=O)[C@H](CCCNC(=N)N)NC(=O)[C@H](Cc2ccc(O)cc2)NC(=O)[C@H](C(C)C)NC(=O)[C@@H](NC(=O)[C@@H](NC(=O)[C@H](CC(N)=O)NC(=O)[C@H](Cc2c[nH]c3ccccc23)NC(=O)[C@H](C)NC(=O)[C@H](Cc2ccccc2)NC(=O)CN)C(C)C)CSSC[C@@H](C(=O)N[C@@H](Cc2cnc[nH]2)C(=O)N[C@@H](CCCNC(=N)N)C(=O)N[C@@H](CCCNC(=N)N)C(=O)N[C@@H](C)C(=O)N[C@@H](CC(N)=O)C(N)=O)NC(=O)[C@H](C(C)C)NC(=O)[C@H](CCCNC(=N)N)NC1=O |  | ICR mouse, blood | intramammary, 5 mg/kg, day 5, 3 d dosing |  | globulin | 19.23 ± 0.08 g/L |
| CCN1[C@@H](C(=O)NC23CCC(C(=O)O)(CC2)CC3)[C@H](c2cccc(Cl)c2F)[C@]2(C(=O)Nc3cc(Cl)ccc32)C12CCCCC2 |  | patients with advanced solid tumours | oral, 150 mg |  | anorexia incidence | 0% |
| C1=Cc2nc1cc1ccc([n-]1)c(-c1ccccc1)c1nc(cc3ccc([n-]3)c2-c2ccccc2)C=C1.CC(=O)[O-].[Mn+3] | LC-MS/MS | Sprague-Dawley rat, plasma | oral gavage, dose not given, 360 min |  | mean plasma concentration | 118 ng/mL |
| CC1(C)[C@H](C(=O)O[C@H](C#N)c2cccc(Oc3ccccc3)c2)[C@@H]1C=C(Br)Br | item: CYP2C19 | human, age 6 months, recombinant human CYP2C19 | 0.1 µM |  | enzyme contribution to clearance | 0.37% |
| O=C1Nc2cc3[nH]nc(-c4ccncc4)c3cc2CN1Cc1ccccc1 | CTCAE v4.03 | advanced solid tumour patients | intravenous, 9.6 mg/kg, schedules 1/2 |  | patients with back pain | 22% |
| Cc1cccc(Cn2nc(C3CC3)c3c(NC(=O)c4cnc5cc(OCCN6CCN(C)CC6)ccn45)cccc32)n1 | item: Pruritus | human advanced solid tumours | oral, dose not given, all-causality,, all doses |  | adverse events incidence | 21.1% |
| CC(C)[C@H](N)C(=O)NCCCS(=O)(=O)O |  | human | oral, 265 mg twice daily, 1 h post-dose, steady state, week 65 |  | plasma concentration | 4910 ng/mL |
| CN1CCN(S(=O)(=O)c2cc([N+](=O)[O-])ccc2N(CCOS(C)(=O)=O)CCOS(C)(=O)=O)CC1 |  | NOD/SCID mouse, naive, blood | intraperitoneal, 12.5 mg/kg, week 1 |  | hemoglobin | 126 g/L and 150 g/L and 144 g/L and 156 g/L |
| [O-][S+]1CCc2nc(N3CCC(c4ncc(Cl)cn4)CC3)nc(NC3(CO)CCC3)c21 (stereo not shown) |  | healthy male humans | 36 mg single dose, after last dose |  | serum alanine aminotransferase | 16.1 U/L |
| N[C@@H]1c2ccccc2OC12CCN(c1cnc3c(N4CCCc5ncccc54)n[nH]c3n1)CC2 |  | patients advanced metastatic solid tumours | oral, dose not given, all patients |  | TEAE leading to death | 1.8% |
| C[C@@H]1OC(=O)NN=C1c1ccc(-c2ccc(F)cc2)c(C(F)(F)F)c1 | phase I trial, item: Nausea worst grade 1 | human patients | dose not given, all dose groups |  | patients with adverse event | 40% |
| CC(=O)c1c(C)c2cnc(Nc3ccc(C4CCN(CCS(C)(=O)=O)CC4)cn3)nc2n(C2CCCC2)c1=O |  | human, plasma | oral, 100 mg twice daily, single dose, monotherapy |  | Vd | 793 L |

Repeated from above:
| Compound | test | test system | conditions | how to read | endpoint | result |
| --- | --- | --- | --- | --- | --- | --- |
| C=CC(=O)N1CC[C@H](n2nc(C#Cc3cc(OC)cc(OC)c3)c3c(N)ncnc32)C1 |  | patients with advanced solid tumours | oral, dose not given, Diarrhea, any grade, QD, with: sevelamer hydrochloride |  | adverse drug reaction incidence | 13.6% |
| CCCCCCCCCC(=O)N[C@@H](Cc1c[nH]c2ccccc12)C(=O)N[C@H](CC(N)=O)C(=O)N[C@@H](CC(=O)O)C(=O)N[C@@H]1C(=O)NCC(=O)N[C@@H](CCCN)C(=O)N[C@@H](CC(=O)O)C(=O)N[C@H](C)C(=O)N[C@@H](CC(=O)O)C(=O)NCC(=O)N[C@H](CO)C(=O)N[C@@H]([C@H](C)CC(=O)O)C(=O)N[C@@H](CC(=O)c2ccccc2N)C(=O)O[C@@H]1C | population PK model | human | intravenous, two-compartment model |  | intercompartmental clearance | 0.0428 L/min |
| Nc1ncnc2c1ncn2[C@@H]1O[C@@H]2COP(=O)([S-])O[C@@H]3[C@H](O)[C@@H](COP([O-])(=S)O[C@H]2[C@H]1O)O[C@H]3n1cnc2c(N)ncnc21.[Na+].[Na+] (stereo partly shown) |  | non-tumor-bearing mice, serum | intravenous, 1 mg/kg, toxicity study |  | glucose | 10 ± 1.32 mmol/L |
| CC1(C)[C@H](C(=O)O[C@H](C#N)c2cccc(Oc3ccccc3)c2)[C@@H]1C=C(Br)Br | item: CYP2C19 | human, age 6 months, recombinant human CYP2C19 | 0.1 µM |  | enzyme contribution to clearance | 0.37% |
